# Assay results from different studies.
# Protocols differ between the studies behind these lines. ± gives the spread as reported.
# B1: UGT1A9 (Homo sapiens, UniProt O60656); chain GKLLVVPMDGSHWFTMRSVVEKLILRGHEVVVVMPEVSWQLGRSLNCTVKTYSTSYTLEDLDREFKAFAHAQWKAQVRSIYSLLMGSYNDIFDLFFSNCRSLFKDKKLVEYLKESSFDAVFLDPFDNCGLIVAKYFSLPSVVFARGILCHYLEEGAQCPAPLSYVPRILLGFSDAMTFKERVRNHIMHLEEHLLCHRFFKNALEIASEILQTPVTEYDLYSHTSIWLLRTDFVLDYPKPVMPNMIFIGGINCHQGKPLPMEFEAYINASGEHGIVVFSLGSMVSEIPEKKAMAIADALGKIPQTVLWRYTGTRPSNLANNTILVKWLPQNDLLGHPMTRAFITHAGSHGVYESICNGVPMVMMPLFGDQMDNAKRMETKGAGVTLNVLEMTSEDLENALKAVINDKSYKENIMRLSSLHKDRPVEPLDLAVFWVEFVMRHKGAPHLRPAAHDLTWYQYHSLDVIGFLLAVVLTVAFITFKCCAYGYRKCLGKKGRVKKAHKSKTH
Substance,tested on,assay,system,conditions,scale,quantity,value
Cc1ccc(NC(=O)c2ccc(CN3CCN(C)CC3)cc2)cc1Nc1nccc(-c2cncc(-c3oncc3C)c2)n1,,,mild-to-moderate Parkinson's disease patients,"oral, 50 mg once daily, day 7, practically defined OFF state",direction not given,MDS-UPDRS part III score,34.3 ± 10.7
CC(C)C[C@H](NC(=O)[C@H](CO)NC(=O)[C@H](CCCNC(=N)N)NC(=O)[C@H](CC(=O)O)NC(=O)[C@H](CCC(=O)O)NC(=O)[C@H](C)NC(=O)[C@@H]1CCCN1C(=O)[C@H](C)NC(=O)[C@H](CCC(=O)O)NC(=O)[C@@H]1CCCN1C(=O)[C@@H]1CCCN1)C(N)=O,,HPLC-EC,"rat F344, normal, substantia nigra","intranasal, 300 µg 5 days per week, 3 weeks",,DOPAC level,269 ± 29 ng/g
CCCCCCCCCCCCCCCC(=O)NCCCC[C@H](NC(=O)[C@H](CCC(=O)O)NC(=O)[C@H](CCC(=O)O)NC(=O)[C@H](Cc1ccc(O)cc1)NC(=O)[C@H](CCC(=O)O)NC(=O)CCCCCNC(=S)Nc1ccc2c(c1)C(=O)OC21c2ccc(O)cc2Oc2cc(O)ccc21)C(=O)N[C@@H](Cc1ccc(O)cc1)C(=O)N[C@@H](CCC(=O)O)C(=O)NCC(=O)NCC(=O)NCC(=O)NCC(=O)N[C@@H](CO)C(=O)NCC(=O)NCC(=O)NCC(=O)NCC(=O)N[C@@H](CO)C(=O)N[C@@H](Cc1ccccc1)C(=O)N[C@@H](CC(N)=O)C(=O)N1CCC[C@H]1C(=O)N[C@@H](CCCNC(=N)N)C(=O)N[C@@H](Cc1c[nH]cn1)C(=O)NC(C)(C)C(=O)N[C@@H](CCC(=O)O)C(=O)NCC(=O)N[C@H](C(=O)N[C@@H](Cc1ccccc1)C(=O)N[C@H](C(=O)N[C@@H](CO)C(=O)N[C@@H](CC(=O)O)C(=O)N[C@H](C(=O)N[C@@H](CO)C(=O)N[C@@H](CO)C(=O)N[C@@H](Cc1ccc(O)cc1)C(=O)N[C@@H](CC(C)C)C(=O)N[C@@H](CCC(=O)O)C(=O)NCC(=O)N[C@@H](CCC(N)=O)C(=O)N[C@@H](C)C(=O)N[C@@H](C)C(=O)N[C@@H](CCCCN)C(=O)N[C@@H](CCC(=O)O)C(=O)N[C@@H](Cc1ccccc1)C(=O)N[C@H](C(=O)N[C@@H](C)C(=O)N[C@@H](Cc1c[nH]c2ccccc12)C(=O)N[C@@H](CC(C)C)C(=O)N[C@H](C(=O)N[C@@H](CCCCN)C(=O)NCC(=O)N[C@@H](CCCNC(=N)N)C(=O)NCC(=O)O)C(C)C)[C@@H](C)CC)C(C)C)[C@@H](C)O)[C@@H](C)O,,,db/db mouse,"subcutaneous, 90 nmol/kg twice weekly, 8 weeks",,serum AST,126 ± 8.5 IU/L
CN(C(=O)c1c(Oc2ccc(F)cc2)nc2ncccn12)c1ccc(Cl)cc1,,,"Golden Syrian hamster, male, diet-induced obese, plasma","intraperitoneal, 6 mg/kg, week 5",baseline: vehicle,remnant cholesterol reduction,41.6%
O=c1cc(-c2ccccc2)oc2cc(O)cc(O)c12,,"cell proliferation, CellTiter-Glo","cord blood CD34+ cells, human","24 h, lowest dose with significant inhibition",baseline: vehicle,lowest effective concentration,250 to 500 µM
CC(=O)O[C@@]12CO[C@@H]1C[C@H](O)[C@@]1(C)C(=O)[C@H](O)C3=C(C)[C@@H](OC(=O)[C@H](O)[C@@H](NC(=O)OC(C)(C)C)c4ccccc4)C[C@@](O)([C@@H](OC(=O)c4ccccc4)[C@H]21)C3(C)C,,,"mouse, PC-3 xenograft","5 mg/kg once weekly for 3 weeks, day 21 after inoculation",,tumour volume,170 ± 22.5 mm3
COc1cc(NC(=O)CCN2CCC(OC(=O)Nc3ccccc3-c3ccccc3)CC2)c(Cl)cc1CNC[C@H](O)c1ccc(O)c2[nH]c(=O)ccc12,,refers to: trough FEV1,COPD patients,day 29,,Emax,0.293 L
NYLAWYQ,,,"peptide, human polyclonal IgM RF SOR","concentration not given, 5 µg/mL mAb II-481 coated, added: RF at 50% max binding concentration",,inhibition,45%
O=C(NCCCCN1CCN(c2cccc(Cl)c2Cl)CC1)c1ccc(-c2cccnc2)cc1,,,"rat, unilateral 6-OHDA lesion","ip, 3 mg/kg, added: L-dopa 8 mg/kg + benserazide 8 mg/kg",,reduction of total AIMs,35.1 ± 9.1%
B1 (UGT1A9),O=c1cc(-c2ccccc2O)oc2cc(O)ccc12,steady-state kinetics,,"pH 7.4, 37 °C",,Vmax/Km,586 µL/min/mg
Polymyxin B,,,human whole blood,"500 ng/mL, 4 h, 37 °C, added: E. coli LPS 0.5 ng/mL",baseline: LPS without compound,IL-6 release,8.4 ± 4.5%
SQSVLYS,,,"peptide, human polyclonal IgM RF SOR","concentration not given, 5 µg/mL mAb II-481 coated, added: RF at 50% max binding concentration",,inhibition,0%
CS(=O)(=O)c1ccc(-c2nc3ccccn3c2Nc2ccc(Cl)cc2)cc1,,formalin test,male Wistar rat,"intraperitoneal, 40 mg/kg",baseline: control group,pain score AUC,decreased
CCOC(=O)[C@@]1(C)CSC(c2ccc(OCCOCCOC)cc2O)=N1,,,"bile duct-cannulated rats, non iron-overloaded, bile","oral, 300 µmol/kg",,duration of iron excretion,> 48 h

# Repeated from above:
Substance,tested on,assay,system,conditions,scale,quantity,value
CS(=O)(=O)c1ccc(-c2nc3ccccn3c2Nc2ccc(Cl)cc2)cc1,,formalin test,male Wistar rat,"intraperitoneal, 40 mg/kg",baseline: control group,pain score AUC,decreased
